Measurements from different studies.
“And” joins repeats or separate records; there may be more than shown. Converted amounts (≈) assume the structure as drawn.

SMILES	organism	test	system	conditions	how to read	quantity	result
O=[N+]([O-])C(=C\Nc1ccccc1O)/C=N/c1ccccc1O	Mus musculus	gene silencing, high-content imaging	LDR reporter GFP cells	30 h, confirmation, mean of two runs	–	Emax	29%
O=S(=O)(c1ccc(-c2ccc3ncnc(Nc4ccc(OCc5ccccc5F)c(Cl)c4)c3c2)cc1)N1CCOCC1	Leishmania major	parasite growth, resazurin	–	promastigote	–	EC50	0.71 µM
CC1=C/C(=N\N=C(/S)Nc2cccnc2)CC(C)(C)C1	Mus musculus	gene silencing, high-content imaging	LDR reporter GFP cells	30 h, retest, mean of two runs	–	Emax	63%
COc1ccc(NC(=O)COc2cccc(OCC(C)C)c2)cc1	Nakaseomyces glabratus	microbial growth, broth dilution	MY1381	–	–	MIC50	2 µg/mL (≈ 6.07 µM)
CC1C=CC=CC(C)C2C=CC3CC(C)(O)C(Cl)C(C)C3C2C(=O)C(Cl)(Cl)C(=O)C(C)C(=O)O1 (stereo not shown)	Staphylococcus aureus	–	MRSA clinical isolate	resistant: OXA,CLI,ERY,MXF	–	MIC	0.025 µg/mL (≈ 0.047 µM)
Fc1cccc(COc2ccc(Nc3ncnc4ccc(-c5ccc(CN6CCOCC6)cc5)cc34)cc2Cl)c1	Leishmania major	parasite growth, resazurin	–	promastigote	–	EC50	2.7 µM
CC(C)(C)NCC(SS(=O)(=O)O)c1ccccc1 (stereo not shown)	Schistosoma mansoni	–	mice	600 mg/kg single dose, 1056 h, dosed day 15, perfused 44	reference: vehicle	male worm burden reduction	92%
Cc1ccc(Nc2ncnc3ccc(-c4ccc(S(=O)(=O)N5CCOCC5)cc4)cc23)cc1	Leishmania major	parasite growth, resazurin	–	promastigote	–	EC50	0.45 µM
CC1(C)[C@H](NC(=O)/C(=N\OCc2c(Cl)cccc2Cl)c2nsc(N)n2)C(=O)N1OS(=O)(=O)O	Shigella flexneri	agar dilution	ATCC 12022, susceptible	–	–	MIC	4 µg/mL (≈ 7.42 µM)
Fc1cccc(COc2ccc(Nc3ncnc4ccc(-c5cccc(CN6CCCCC6)c5)cc34)cc2Cl)c1	Leishmania major	parasite growth, resazurin	–	promastigote	–	EC50	2.5 µM
Cc1cnc(CNC(=O)c2c(=O)c3ccc(N4CCCN(C)CC4)nc3n3c2sc2ccccc23)cn1	Trypanosoma brucei	RNA-seq	Lister 427 bloodstream form	2 x EC50, 4 h	reference: untreated	unchanged genes	16900 genes
[2H]C([2H])(N)C([2H])([2H])NC(=O)c1cc(C2CC2)nc2c1cnn2C(C)C	Enterovirus D68	viral replication	RD, US/MO/14-18947	30 nM	–	plaque reduction	0% and 2.14%
c1ccc(Nc2ncnc3ccc(-c4cccc(N5CCOCC5)c4)cc23)cc1	Leishmania major	parasite growth, resazurin	–	promastigote	–	EC50	9.4 µM
C(=N\Nc1nc(-c2ccccn2)nc2ccccc12)/c1ccccc1	Mus musculus	gene silencing, high-content imaging	LDR reporter GFP cells	30 h, retest run 2	–	Emax	117%
CC(=O)O[C@@H]1[C@@H](OC(C)=O)[C@H](Sc2sc(C(=O)c3ccc(Cl)cc3)c(N)c2-c2nc3ccccc3s2)OC[C@H]1OC(C)=O	human adenovirus type 7	plaque reduction	–	non-toxic concentration	–	viral titre reduction	0%
CC1(C)[C@H](NC(=O)/C(=N\OCc2cc(=O)c(O)cn2O)c2csc(N)n2)C(=O)N1OS(=O)(=O)O	Proteus vulgaris	agar dilution	ATCC 29905 susceptible	–	–	MIC	≤ 0.03 µg/mL
Cc1cc(N2CC[C@@](C#N)(C3(C)CC3)C2=O)cc(C(=O)NCc2cc(F)cc(-c3cnn(C)c3)c2)n1	Plasmodium falciparum	–	Pf3D70087/N9, humanized SCID mouse	10 mg/kg, 4-day test, day 3 post-infection	–	parasitaemia	1.11%
O=S(=O)(c1ccc(-c2ccc3ncnc(Nc4ccc(OCc5cccc(F)c5)c(Cl)c4)c3c2)cc1)N1CCSCC1	Leishmania major	parasite growth, resazurin	–	promastigote	–	EC50	> 15 µM
CCN(CC)CCCNC(=O)CSc1c2c(nc3cc(Cl)ccc13)CCCC2	Mus musculus	gene silencing, high-content imaging	LDR reporter GFP cells	retest, mean of two runs	–	EC50	10 µM

SMILES	organism	test	system	conditions	how to read	quantity	result
C#CCNC(=O)C1(O/N=C(\C(=O)N[C@@H]2C(=O)N(OS(=O)(=O)O)C2(C)C)c2csc(N)n2)CC1	Shigella flexneri	agar dilution	ATCC 12022 susceptible	–	–	MIC	0.5 µg/mL (≈ 0.999 µM)
O=C1NC(=O)C2(NC1Cc1ccccc1)C1CC3CC(C1)CC2C3 (stereo not shown)	Trypanosoma brucei	parasite growth	–	pH 7.4, blood stage	–	IC90	27.1 µM
CCCOC(=O)N1c2cc(CNC)ccc2[C@H](NC(=O)C(=O)Nc2ccc(Cl)c(F)c2)[C@H]1CNC(=N)N	HIV-1	pseudovirus infection, Env pseudovirus neutralisation	TZM-bl, clade C	–	–	IC50	0.528 µM
Fc1cccc(COc2ccc(Nc3ncnc4ccc(-c5ccc(CN6CCCCC6)cc5)cc34)cc2Cl)c1	Leishmania major	parasite growth, resazurin	–	promastigote	–	EC50	8.4 µM
CN(C)CCNC(=O)c1cccn2c(=O)c3cc4ccccc4cc3nc12	Trypanosoma brucei	RNA-seq	Lister 427 bloodstream form	2 × EC50, 4 h, ChIP-seq G4 peak overlap	–	upregulated G4-containing genes	2 genes
CCCC(=O)N1CCN(c2ccc(NC(=O)c3ccc([N+](=O)[O-])o3)cc2Cl)CC1	Mus musculus	gene silencing, high-content imaging	LDR reporter GFP cells	retest run 2	–	AC50	3.16 µM
CC1(C)[C@H](NC(=O)/C(=N\OC2(C(=O)O)CCCCC2)c2csc(N)n2)C(=O)N1OS(=O)(=O)O	Proteus vulgaris	agar dilution	ATCC 29905, susceptible	–	–	MIC	0.25 µg/mL (≈ 0.495 µM)
O=C(CSc1cccc[n+]1[O-])c1ccccc1Br	Mus musculus	gene silencing, high-content imaging	LDR reporter GFP cells	retest run 1	–	AC50	25.1 µM
CC(=O)OC[C@H]1O[C@@H](Sc2sc(C(=O)c3ccc(Cl)cc3)c(N)c2-c2nc3ccccc3s2)[C@H](OC(C)=O)[C@@H](OC(C)=O)[C@H]1OC(C)=O	human adenovirus type 7	plaque reduction	–	non-toxic concentration	–	viral titre reduction	0%
CN1CCN(S(=O)(=O)c2ccc(-c3ccc4ncnc(Nc5ccccc5)c4c3)cc2)CC1	Leishmania major	parasite growth, resazurin	–	promastigote	–	EC50	6.1 µM
Cc1c(CN(C)C(=O)/C=C/c2cnc3c(c2)CC(N)C(=O)N3)oc2ccccc12 (stereo not shown)	Klebsiella pneumoniae	microbial growth, broth dilution	BAA1705	–	–	MIC	8 µg/mL (≈ 20.5 µM)
CC(C)n1ncc2c(C(=O)NCC3CNC3)cc(C3CC3)nc21	Enterovirus D68	viral replication	RD, US/MO/14-18947	100 nM	–	plaque reduction	0%
CC1(C)[C@H](NC(=O)/C(=N\OCC(=O)N2CCC(C(=O)O)C2)c2nsc(N)n2)C(=O)N1OS(=O)(=O)O (stereo partly shown)	Shigella flexneri	agar dilution	ATCC 12022, susceptible	–	–	MIC	8 µg/mL (≈ 14.9 µM)
Cc1cccc2c1N(C(=O)n1ccnn1)CC2	Arabidopsis thaliana	–	wild type, seedlings	30 µM, continuous red light, together with: 0.3 µM karrikin KAR2	–	hypocotyl length	11.9 mm
Cc1ccc(/C=N/N=C(\S)Nc2cccc(S(=O)(=O)N(C)C)c2)o1	Mus musculus	gene silencing, high-content imaging	LDR reporter GFP cells	30 h, retest, mean of two runs	–	Emax	50%
C=C(NC(=O)c1csc(-c2nc3c(cc2O)-c2nc(cs2)C(=O)NC(C(C)O)C(=O)NC(=C(C)OC)c2nc(cs2)C(=O)NC2c4nc(cs4)C(=O)NC(COC(=O)c4c5c6c(cccc6n4O)COC(=O)C(OC4CC(C)(O)C(N(C)C)C(C)O4)C2OC5)c2nc-3cs2)n1)C(N)=O (stereo not shown)	Staphylococcus epidermidis	broth microdilution	methicillin-resistant isolates	–	–	MIC50	0.0156 µg/mL (≈ 0.0109 µM)
COc1ccc(NC(=O)CSc2nc3c(oc4ccccc43)c(=O)n2Cc2ccco2)cc1Cl	Mus musculus	gene silencing, high-content imaging	LDR reporter GFP cells	confirmation, mean of two runs	–	EC50	12.6 µM
CC(C)n1ncc2c(C(=O)NCC(C)(C)N)cc(C3CC3)nc21	Enterovirus D68	viral replication	RD, US/MO/14-18947	100 nM	–	plaque reduction	12% and 16%

Excerpt of the above:
SMILES	organism	test	system	conditions	how to read	quantity	result
Fc1cccc(COc2ccc(Nc3ncnc4ccc(-c5cccc(CN6CCCCC6)c5)cc34)cc2Cl)c1	Leishmania major	parasite growth, resazurin	–	promastigote	–	EC50	2.5 µM
Cc1cnc(CNC(=O)c2c(=O)c3ccc(N4CCCN(C)CC4)nc3n3c2sc2ccccc23)cn1	Trypanosoma brucei	RNA-seq	Lister 427 bloodstream form	2 x EC50, 4 h	reference: untreated	unchanged genes	16900 genes
[2H]C([2H])(N)C([2H])([2H])NC(=O)c1cc(C2CC2)nc2c1cnn2C(C)C	Enterovirus D68	viral replication	RD, US/MO/14-18947	30 nM	–	plaque reduction	0% and 2.14%
c1ccc(Nc2ncnc3ccc(-c4cccc(N5CCOCC5)c4)cc23)cc1	Leishmania major	parasite growth, resazurin	–	promastigote	–	EC50	9.4 µM
C(=N\Nc1nc(-c2ccccn2)nc2ccccc12)/c1ccccc1	Mus musculus	gene silencing, high-content imaging	LDR reporter GFP cells	30 h, retest run 2	–	Emax	117%
CC(=O)O[C@@H]1[C@@H](OC(C)=O)[C@H](Sc2sc(C(=O)c3ccc(Cl)cc3)c(N)c2-c2nc3ccccc3s2)OC[C@H]1OC(C)=O	human adenovirus type 7	plaque reduction	–	non-toxic concentration	–	viral titre reduction	0%
